Published values pooled from the literature.
Numbers after ± are the reported error.
Target: Receptor tyrosine-protein kinase erbB-2 (ERBB2, Homo sapiens, UniProt P04626)

Compound = C=CC(=O)N1CCC[C@@H](n2nc(-c3ccc(Oc4ccccc4)cc3)c3c(N)ncnc32)C1; setting = 1 µM; measurement = remaining activity; result = 28.6%
Compound = CC[C@H](C)[C@H](NC(=O)[C@H](CO)NC(=O)[C@H](CCCNC(=N)N)NC(=O)[C@H](CC(C)(C)C)NC(=O)[C@H](CCCCNC(=O)CN(CCNC(=O)CN(CCNC(=O)CN(CCNC(=O)CN(CCNC(=O)[C@H](CCCNC(=N)N)NC(C)=O)C(=O)Cn1ccc(N)nc1=O)C(=O)Cn1cnc2c(=O)[nH]c(N)nc21)C(=O)Cn1cnc2c(=O)[nH]c(N)nc21)C(=O)Cn1ccc(N)nc1=O)NC(=O)[C@H](C)NC(=O)[C@H](CCCNC(=N)N)NC(=O)[C@H](CCCCN)NC(=O)[C@H](CCC(N)=O)NC(=O)[C@H](CCC(N)=O)NC(=O)[C@H](CC(N)=O)NC(=O)[C@@H](NC(=O)[C@H](CC(C)C)NC(=O)[C@H](CC(N)=O)NC(=O)[C@@H]1CCCN1C(=O)[C@H](CC(=O)O)NC(=O)[C@H](CC(C)C)NC(=O)[C@H](C)NC(=O)[C@H](CS)NC(=O)[C@H](CCCC(=O)NCCN(CC(=O)NCCN(CC(=O)NCCN(CC(=O)NCCN(CC(N)=O)C(=O)Cn1cnc2c(=O)[nH]c(N)nc21)C(=O)Cn1ccc(N)nc1=O)C(=O)Cn1ccc(N)nc1=O)C(=O)Cn1cnc2c(=O)[nH]c(N)nc21)NC(=O)[C@H](Cc1c[nH]c2ccccc12)NC(=O)[C@H](Cc1ccc(O)cc1)NC(=O)[C@H](CCCNC(=N)N)NC(=O)[C@H](CC(N)=O)NC(C)=O)[C@@H](C)O)C(=O)N[C@@H](Cc1ccc(O)cc1)C(=O)N[C@@H](CCC(=O)O)C(N)=O; assay = binding, affinity selection mass spectrometry; setting = 1 h, 4 °C, unit not given; scale = relative to: control-subtracted; measurement = enrichment; result = -0.57
Compound = C=CC(=O)N1CCC([C@@H]2CCNc3c(C(N)=O)c(-c4ccc(Oc5ccccc5)cc4)nn32)CC1; assay = kinase activity, inhibitor, HotSpot radiometric; setting = 100 nM, together with: ATP 10 µM; measurement = remaining activity; result = 103%
Compound = [2H]c1cc(C)c(NC(=O)c2cnc(Nc3cc(N4CCC(O)CC4)nc(C)n3)s2)c(Cl)c1; setting = 0.001 µM; measurement = inhibition; result = < 50%
Compound = COc1ccc(F)cc1C(=O)NCc1ccc(-c2nn([C@@H](C)C(F)(F)F)c(N)c2C(N)=O)cc1; assay = kinase activity, inhibitor, HotSpot radiometric; setting = 100 nM, together with: ATP 10 µM; measurement = remaining activity; result = 97.3 ± 0.2%
Compound = Cc1nc(Nc2ncc(C(=O)Nc3c(C)cccc3Cl)s2)cc(N2CCN(CCO)CC2)n1; assay = kinase activity, inhibitor, Kinase-Glo MAX; setting = 0.1 µM; measurement = inhibition; result = 53.6%
Compound = CC[C@H](C)[C@H](NC(=O)[C@H](CCCCNC(=O)CN(CCNC(=O)CN(CCNC(=O)CN(CCNC(=O)CN(CCNC(=O)[C@H](CCCNC(=N)N)NC(C)=O)C(=O)Cn1ccc(N)nc1=O)C(=O)Cn1cnc2c(=O)[nH]c(N)nc21)C(=O)Cn1cnc2c(=O)[nH]c(N)nc21)C(=O)Cn1ccc(N)nc1=O)NC(=O)[C@H](C)NC(=O)[C@H](CCCNC(=N)N)NC(=O)[C@H](CCCCN)NC(=O)[C@H](CCC(N)=O)NC(=O)[C@H](CCC(N)=O)NC(=O)[C@H](CC(N)=O)NC(=O)[C@@H](NC(=O)[C@H](CC(C)C)NC(=O)[C@H](CC(N)=O)NC(=O)[C@@H]1CCCN1C(=O)[C@H](CC(=O)O)NC(=O)[C@H](CC(C)C)NC(=O)[C@H](C)NC(=O)[C@H](CS)NC(=O)[C@H](CCCC(=O)NCCN(CC(=O)NCCN(CC(=O)NCCN(CC(=O)NCCN(CC(N)=O)C(=O)Cn1cnc2c(=O)[nH]c(N)nc21)C(=O)Cn1ccc(N)nc1=O)C(=O)Cn1ccc(N)nc1=O)C(=O)Cn1cnc2c(=O)[nH]c(N)nc21)NC(=O)[C@H](Cc1c[nH]c2ccccc12)NC(=O)[C@H](Cc1ccc(O)cc1)NC(=O)[C@H](CCCNC(=N)N)NC(=O)[C@H](CC(N)=O)NC(=O)[C@H](CCCNC(=N)N)NC(=O)[C@H](CC1CCCCC1)NC(=O)[C@H](CCC(=O)O)NC(=O)[C@H](CCCCN)NC(=O)[C@H](CO)NC(=O)[C@H](Cc1ccccc1)NC(C)=O)[C@@H](C)O)C(=O)N[C@@H](CCCNC(=N)N)C(=O)N[C@@H](CO)C(=O)N[C@H](C(=O)N[C@@H](Cc1ccc(O)cc1)C(=O)N[C@@H](CCC(=O)O)C(=O)N[C@@H](CCC(=O)O)C(N)=O)[C@@H](C)CC; assay = binding, SPR; measurement = dissociation half-life; result = 9.6 min
Compound = CNc1ncc2c(/C=C/C(=O)N3CCC(OC)CC3)nn(Cc3cccc(C(F)(F)F)c3)c2n1; assay = kinase activity, inhibitor; setting = 1 µM; scale = relative to: untreated control; measurement = remaining activity; result = 90%
Compound = CCCC[C@H](NC(=O)[C@H](CCC(=O)O)NC(=O)[C@H](CCCCN)NC(=O)[C@H](CO)NC(=O)[C@H](Cc1ccccc1)NC(C)=O)C(=O)N[C@@H](CCCNC(=N)N)C(=O)N[C@@H](CC(N)=O)C(=O)N[C@@H](CCCNC(=N)N)C(=O)N[C@@H](Cc1ccc(O)cc1)C(=O)N[C@@H](Cc1csc2ccccc12)C(=O)N[C@@H](CCCC(=O)NCCN(CC(=O)NCCN(CC(=O)NCCN(CC(=O)NCCN(CC(N)=O)C(=O)Cn1cnc2c(=O)[nH]c(N)nc21)C(=O)Cn1ccc(N)nc1=O)C(=O)Cn1ccc(N)nc1=O)C(=O)Cn1cnc2c(=O)[nH]c(N)nc21)C(=O)N[C@@H](CS)C(=O)N[C@@H](C)C(=O)N[C@@H](CC(C)C)C(=O)N[C@@H](CC(=O)O)C(=O)N1CCC[C@H]1C(=O)N[C@@H](CC(N)=O)C(=O)N[C@@H](CC(C)C)C(=O)N[C@H](C(=O)N[C@@H](CC(N)=O)C(=O)N[C@@H](CCC(N)=O)C(=O)N[C@@H](CCC(N)=O)C(=O)N[C@@H](CCCCN)C(=O)N[C@@H](CCCNC(=N)N)C(=O)N[C@@H](C)C(=O)N[C@@H](CCCCNC(=O)CN(CCNC(=O)CN(CCNC(=O)CN(CCNC(=O)CN(CCNC(=O)[C@H](CCCNC(=N)N)NC(C)=O)C(=O)Cn1ccc(N)nc1=O)C(=O)Cn1cnc2c(=O)[nH]c(N)nc21)C(=O)Cn1cnc2c(=O)[nH]c(N)nc21)C(=O)Cn1ccc(N)nc1=O)C(=O)N[C@H](C(=O)N[C@@H](CCCNC(=N)N)C(=O)N[C@@H](CO)C(=O)N[C@H](C(=O)N[C@@H](Cc1ccc(O)cc1)C(=O)N[C@@H](CCC(=O)O)C(=O)N[C@@H](CCC(=O)O)C(=O)NCC(=O)N[C@@H](CCC(=O)O)C(N)=O)[C@@H](C)CC)[C@@H](C)CC)[C@@H](C)O; assay = binding, affinity selection mass spectrometry; setting = 1 h, 4 °C, unit not given; scale = relative to: control-subtracted; measurement = enrichment; result = 2.62
Compound = c1cnc2ccc(Nc3nc(NC4CC4)c4nc[nH]c4n3)cc2c1; assay = kinase activity, inhibitor, SelectScreen kinase profiling; setting = 1 µM; scale = relative to: control; measurement = remaining activity; result = 102%

Excerpt of the above:
Compound = [2H]c1cc(C)c(NC(=O)c2cnc(Nc3cc(N4CCC(O)CC4)nc(C)n3)s2)c(Cl)c1; setting = 0.001 µM; measurement = inhibition; result = < 50%
Compound = CC[C@H](C)[C@H](NC(=O)[C@H](CCCCNC(=O)CN(CCNC(=O)CN(CCNC(=O)CN(CCNC(=O)CN(CCNC(=O)[C@H](CCCNC(=N)N)NC(C)=O)C(=O)Cn1ccc(N)nc1=O)C(=O)Cn1cnc2c(=O)[nH]c(N)nc21)C(=O)Cn1cnc2c(=O)[nH]c(N)nc21)C(=O)Cn1ccc(N)nc1=O)NC(=O)[C@H](C)NC(=O)[C@H](CCCNC(=N)N)NC(=O)[C@H](CCCCN)NC(=O)[C@H](CCC(N)=O)NC(=O)[C@H](CCC(N)=O)NC(=O)[C@H](CC(N)=O)NC(=O)[C@@H](NC(=O)[C@H](CC(C)C)NC(=O)[C@H](CC(N)=O)NC(=O)[C@@H]1CCCN1C(=O)[C@H](CC(=O)O)NC(=O)[C@H](CC(C)C)NC(=O)[C@H](C)NC(=O)[C@H](CS)NC(=O)[C@H](CCCC(=O)NCCN(CC(=O)NCCN(CC(=O)NCCN(CC(=O)NCCN(CC(N)=O)C(=O)Cn1cnc2c(=O)[nH]c(N)nc21)C(=O)Cn1ccc(N)nc1=O)C(=O)Cn1ccc(N)nc1=O)C(=O)Cn1cnc2c(=O)[nH]c(N)nc21)NC(=O)[C@H](Cc1c[nH]c2ccccc12)NC(=O)[C@H](Cc1ccc(O)cc1)NC(=O)[C@H](CCCNC(=N)N)NC(=O)[C@H](CC(N)=O)NC(=O)[C@H](CCCNC(=N)N)NC(=O)[C@H](CC1CCCCC1)NC(=O)[C@H](CCC(=O)O)NC(=O)[C@H](CCCCN)NC(=O)[C@H](CO)NC(=O)[C@H](Cc1ccccc1)NC(C)=O)[C@@H](C)O)C(=O)N[C@@H](CCCNC(=N)N)C(=O)N[C@@H](CO)C(=O)N[C@H](C(=O)N[C@@H](Cc1ccc(O)cc1)C(=O)N[C@@H](CCC(=O)O)C(=O)N[C@@H](CCC(=O)O)C(N)=O)[C@@H](C)CC; assay = binding, SPR; measurement = dissociation half-life; result = 9.6 min
